Measurements pooled from the literature.
Parts stem from different laboratories: compare values within a part only.

Block 1 — technique: RNA Bind-n-Seq; molecule type: RNA; sample: in vitro; concentration: 20 nM; notes: 6-mer, flanks averaged, single round; with: 150 mM LiCl; reference: input library; reading: higher = stronger binding
Target: TAR DNA-binding protein 43, full length, His tag (TARDBP, Homo sapiens, UniProt Q13148, residues 1-414)
`AUCAAG`: “6-mer enrichment (R)” 0.814.
For `AUGGGA`, “6-mer enrichment (R)” read 1.11.
For `GUAUAA`, “6-mer enrichment (R)” read 0.996.
`AAUGCA` — result for “6-mer enrichment (R)”: 0.913.
For `CCCUAC`, “6-mer enrichment (R)” read 1.01.
`CACCUU` — result for “6-mer enrichment (R)”: 0.971.
Under “6-mer enrichment (R)”, `UGCCUC` is recorded as 0.963.
For `CAUGUA`, “6-mer enrichment (R)” read 0.973.
For `CUAGAC`, “6-mer enrichment (R)” read 0.818.
Under “6-mer enrichment (R)”, `UUUGAA` is recorded as 1.07.

Block 2 — technique: RNA Bind-n-Seq; molecule type: RNA; sample: in vitro; concentration: 200 nM; notes: whole 134-nt RNA, ends assumed; with: 150 mM KCl; reference: input library; reading: higher = stronger binding
Target: Fragile X messenger ribonucleoprotein 1, C-terminal low-complexity region (Fmr1, Mus musculus, UniProt P35922)
With `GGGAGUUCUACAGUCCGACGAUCUCAAGUCCUGUGCUACACAUCGUAUGUACCGAAUCGGGGUUGGUUGGGGUUGGGGAAAGUAUUAUGUUACGCCGUUCGGAUCUGCACUUCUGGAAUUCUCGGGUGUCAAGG` the log2 enrichment was 0.862.
The log2 enrichment of `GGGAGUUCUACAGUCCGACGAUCAGUCCUGUGCUACACAUCGUAUGUACCGAAUCGGGGUUUGGGGAGGGGUUUUUGGGGAAAGUAUUAUGUUACGCCGUUCGGAUCUGCACUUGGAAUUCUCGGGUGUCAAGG` is reported as 0.691.
With `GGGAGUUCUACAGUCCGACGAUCACCAUGCAGGUGCGCAUCUUUGGGAAGUGGGGCAAGGGGGGGAUAGGGAGGGGGGUAACACUUUGGGAACAGGUGGUCCCAGGUCGUUUCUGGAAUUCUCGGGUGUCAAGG` the log2 enrichment was 0.744.
`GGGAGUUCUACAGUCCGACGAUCGUCCUGUGCUACACAUCGUAUGUACCGAAUCGGGGUGGGGUUUGGGGAAAAAAAGGGGAAAGUAUUAUGUUACGCCGUUCGGAUCUGCACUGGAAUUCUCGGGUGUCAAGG` has a log2 enrichment of 0.44.
The log2 enrichment of `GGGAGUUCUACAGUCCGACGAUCUAACUUUAGAGGAGGAUCUGAUGGAUAAGGCAGUGGACGUGGAUUUGGGGAUGGCUAUAAUGGGUAUGGAGGAGGACCUGGAGGUGGCAAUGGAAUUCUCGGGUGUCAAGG` is reported as 0.125.
The log2 enrichment of `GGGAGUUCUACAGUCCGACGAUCGCAGGAAGUAAAAACAAAUGGAAAUGCUUCGGAUAGUGGCAGGGGUGGGGGUUGCUAAGGAAAGGGUGGGAUGGGAGUGGGUAAAGACUUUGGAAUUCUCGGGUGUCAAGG` is reported as 0.541.
The log2 enrichment of `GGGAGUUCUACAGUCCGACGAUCUUCAUUCCUUGGAAGAAGCUGUACCAUCGAUACCUGAUGAAUGAAGAGCAAGCUGUCAGCAAAGUGGACGGCAUCCUGUCUAACUGUGGCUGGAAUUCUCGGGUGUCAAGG` is reported as -1.98.
`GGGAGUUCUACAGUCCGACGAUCUCAAGUCCUGUGCUACACAUCGUAUGUACCGAAUCGGGAAAGGGAAAGGAAAGGGAAAGUAUUAUGUUACGCCGUUCGGAUCUGCACUUCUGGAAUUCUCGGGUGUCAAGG` has a log2 enrichment of -0.496.

Block 3 — technique: universal PBM; molecule type: double-stranded DNA, one strand shown; sample: in vitro; concentration: not given; reading: higher = stronger binding
Target: Sal-like protein 4, full length isoform B (SALL4, Homo sapiens, UniProt Q9UJQ4-2, residues 1-616)
Notes: 8-mer, flanks averaged, mean of replicates
For `CGATCGAC`, the E-score was -0.0262.
`ATCAGTGA` gave an E-score of 0.00867.
`GCCACACA` has an E-score of -0.123.
For `GCCTGACC`, the E-score was -0.0801.
`GATTGGCC` has an E-score of -0.136.
`CGTCAGAA` has an E-score of -0.0891.
With `CATTTCAC` the E-score was 0.0629.
For `CATTTAAG`, the E-score was 0.204.
With `CATACCAC` the E-score was 0.0191.
`ACCTTGTA` has an E-score of 0.206.
With `GTAGATAC` the E-score was 0.174.
`CACATTGC` gave an E-score of 0.0201.
For `CCGCGCAG`, the E-score was -0.351.
The E-score of `AATCGAGC` is reported as -0.052.
The E-score of `CTCCGGCC` is reported as -0.327.
For `CTACCCCA`, the E-score was -0.0608.

Block 4 — technique: RNA Bind-n-Seq; molecule type: RNA; sample: in vitro; concentration: not given; notes: RNA with constant flanks, ends assumed; reference: input RNA pool; reading: higher = stronger binding
Target: RING finger protein unkempt homolog, zinc fingers 1-6, GST-SBP tag (UNK, Homo sapiens, UniProt Q9C0B0, residues 30-357)
Target sequence (chain): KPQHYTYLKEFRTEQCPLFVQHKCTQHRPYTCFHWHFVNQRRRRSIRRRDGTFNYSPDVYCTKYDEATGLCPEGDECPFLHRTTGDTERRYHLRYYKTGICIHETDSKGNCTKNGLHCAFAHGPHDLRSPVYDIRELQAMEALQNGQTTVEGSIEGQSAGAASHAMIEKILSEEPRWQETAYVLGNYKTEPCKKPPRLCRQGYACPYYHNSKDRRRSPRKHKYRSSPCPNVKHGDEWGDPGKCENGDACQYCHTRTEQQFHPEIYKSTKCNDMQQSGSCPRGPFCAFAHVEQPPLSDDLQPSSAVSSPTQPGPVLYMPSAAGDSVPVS
`GGGAGUUCUACAGUCCGACGAUCGAUAUCCCACUGUUCCCCGUGCAGACAAAAUACAUGGAUGUGGUCAAGGAGCGAAUCCGUUCCGCUCGACAGAUUGAGAAAUCUGAGUAUCGGAACUUCCAGGCUUGCCUGCACAACUCUCAACAGAGGAUUGAGCAUCA` has a bound/input enrichment of 0.0936 ratio.
`GGGAGUUCUACAGUCCGACGAUCAAAACUACUAUUUUUAGUAUACUUGUUUACGUAAAUGCUGAUUGGAAAUAUUUAAAUGACUACCGAUCUGAUUCUUUCUUUUCCUUUGGAAACUGGGAUUAAUGUAUGCUCUAGAUCCAUCAACAGAGGAUUGAGCAUCA` gave a bound/input enrichment of 0.361 ratio.
The bound/input enrichment of `GGGAGUUCUACAGUCCGACGAUCAUAAGUUAUACUUUCCGUUCAGUUUGUGUUUGUUCCAUAUGCGGAGUGUGGCACUCUGGCCCGCUGAGUUCAGUUCCCACGGGGACUCCUGUUUCUUAGGAAGCAUGCCAAAUGCCAGCUCAACAGAGGAUUGAGCAUCA` is reported as 0.225 ratio.

Block 5 — technique: aptamer microarray, sandwich; molecule type: DNA with 2'F-ANA; sample: in vitro; concentration: 200 nM; with: Cy3 exosite-II aptamer, 400 nM; reading: higher = stronger binding; sequence: GGTTGGTGTGGTTGG
Target: Prothrombin, mature alpha-thrombin (F2, Homo sapiens, UniProt P00734)
Notes: whole 15-mer aptamer, many near background
`2'F-ANA at 1 3 4 6 7 8 9 12 13 14 15` — result for “mean fluorescence intensity”: 76.1 a.u.
`2'F-ANA at 1 3 4 5 10 11 14 15`: “mean fluorescence intensity” 43.7 a.u.
`2'F-ANA at 2 4 5 8 10 14 15`: “mean fluorescence intensity” 47.1 a.u.
`2'F-ANA at 3 5 6 7 8 9 10`: “mean fluorescence intensity” 55.8 a.u.
`2'F-ANA at 1 2 3 4 5 6 7 10` — result for “mean fluorescence intensity”: 49.5 a.u.
`2'F-ANA at 3 4 5 6 9 10 11 13 14 15`: “mean fluorescence intensity” 51 a.u.
`2'F-ANA at 2 4 7 10 11 12 13 14 15` — result for “mean fluorescence intensity”: 64.3 a.u.
For `2'F-ANA at 1 2 5 7 8 10 11 13 15`, “mean fluorescence intensity” read 50.8 a.u.
`2'F-ANA at 1 2 8 9 10 11 12 14 15` — result for “mean fluorescence intensity”: 52.7 a.u.
Under “mean fluorescence intensity”, `2'F-ANA at 2 3 8 9 10 11 13 14` is recorded as 225 a.u.
Under “mean fluorescence intensity”, `2'F-ANA at 1 7 9 11 12 13 14 15` is recorded as 65.7 a.u.
Under “mean fluorescence intensity”, `2'F-ANA at 5 6 7 13 15` is recorded as 53.4 a.u.
`2'F-ANA at 1 2 3 4 7 9 11 12 13 15` — result for “mean fluorescence intensity”: 188 a.u.
`2'F-ANA at 1 4 6 8 9 10 11 12 14 15`: “mean fluorescence intensity” 162 a.u.
Under “mean fluorescence intensity”, `2'F-ANA at 1 5 6 7 9 11 12 13 15` is recorded as 62.7 a.u.

Block 6 — technique: protein-binding microarray; molecule type: double-stranded DNA, one strand shown; sample: in vitro; concentration: 0.8 µM; notes: whole 60-bp probe, no competitor; reading: higher = stronger binding
Target: Centromere-binding protein 1, full length, N-terminal tag (CBF1, Saccharomyces cerevisiae, UniProt P17106, residues 1-351)
Sequence of UniProt P17106 (whole entry, looked up): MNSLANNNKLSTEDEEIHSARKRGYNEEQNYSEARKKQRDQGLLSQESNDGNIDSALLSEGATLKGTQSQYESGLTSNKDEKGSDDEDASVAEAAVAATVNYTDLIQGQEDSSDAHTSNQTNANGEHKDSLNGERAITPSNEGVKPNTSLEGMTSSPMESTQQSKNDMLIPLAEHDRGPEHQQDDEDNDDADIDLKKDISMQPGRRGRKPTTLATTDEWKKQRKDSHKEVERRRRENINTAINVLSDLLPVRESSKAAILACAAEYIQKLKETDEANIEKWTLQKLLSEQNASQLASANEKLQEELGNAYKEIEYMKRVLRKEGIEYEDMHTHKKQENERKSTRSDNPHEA
For `GAAATCTCAACTCGTCACCACACAAAAAAATGGTAGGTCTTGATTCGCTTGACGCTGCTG`, the fluorescence intensity was 588 a.u.
The fluorescence intensity of `CCTAACTACTATAGTGATGTAATATAGCTTCGTACAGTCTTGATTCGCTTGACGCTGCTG` is reported as 524 a.u.
`GAAGAAGACGTCATACTCGTGGTTATATAATCTTAGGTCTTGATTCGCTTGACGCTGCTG` gave a fluorescence intensity of 611 a.u.
For `CTACTGTTATTCTGCTTGACCACGAATGTACTGTTCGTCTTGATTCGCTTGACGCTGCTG`, the fluorescence intensity was 598 a.u.
For `CTATGTTTTGATTCTGTCATGAGTATTACTTATTTCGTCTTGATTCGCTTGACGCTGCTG`, the fluorescence intensity was 549 a.u.
For `GAATATTATGTATGTGATGTCAAGATGTAAAAATAGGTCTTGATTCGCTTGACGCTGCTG`, the fluorescence intensity was 616 a.u.
The fluorescence intensity of `GAACACTTCTGCATTCTGGTGGTGAGGGTTCTGTAGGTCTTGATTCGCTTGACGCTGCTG` is reported as 519 a.u.
`CTATTGAAAATGCAACACGTATACCTCCGGAGATTCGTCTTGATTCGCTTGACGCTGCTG` has a fluorescence intensity of 510 a.u.
The fluorescence intensity of `CTATCTCTGGCCGATCACGCGCCATTGTCCCTCTTCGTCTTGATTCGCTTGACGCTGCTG` is reported as 1440 a.u.
The fluorescence intensity of `CTATCACGTGCATGTCACGTTTTTGCCGCCGAATTCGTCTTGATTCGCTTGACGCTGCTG` is reported as 13100 a.u.
`GAATTTCCAAAGTCCCACGTTTAATAACCCACATAGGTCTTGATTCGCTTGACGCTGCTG` gave a fluorescence intensity of 569 a.u.
With `GAAAACATTGGTGGTGGTCTGACATATTTTTTATAGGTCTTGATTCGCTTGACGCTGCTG` the fluorescence intensity was 620 a.u.

Repeated from above (block 5):
`2'F-ANA at 3 5 6 7 8 9 10`: “mean fluorescence intensity” 55.8 a.u.
`2'F-ANA at 1 2 3 4 5 6 7 10` — result for “mean fluorescence intensity”: 49.5 a.u.
`2'F-ANA at 3 4 5 6 9 10 11 13 14 15`: “mean fluorescence intensity” 51 a.u.
`2'F-ANA at 2 4 7 10 11 12 13 14 15` — result for “mean fluorescence intensity”: 64.3 a.u.
For `2'F-ANA at 1 2 5 7 8 10 11 13 15`, “mean fluorescence intensity” read 50.8 a.u.
`2'F-ANA at 1 2 8 9 10 11 12 14 15` — result for “mean fluorescence intensity”: 52.7 a.u.
Under “mean fluorescence intensity”, `2'F-ANA at 2 3 8 9 10 11 13 14` is recorded as 225 a.u.
Under “mean fluorescence intensity”, `2'F-ANA at 1 7 9 11 12 13 14 15` is recorded as 65.7 a.u.
